Assay results from different studies.
Numbered parts are unrelated; each lists some results of a single study.

Series 1 — technique: protein-binding microarray; form: hairpin DNA; matrix: in vitro; tested at: not given; reference: not given; reading: higher = stronger binding
Target: Runt-related transcription factor 1, full length (RUNX1, Homo sapiens, UniProt Q01196-8, residues 1-480)
Notes: whole hairpin DNA, median over replicate spots
Oligonucleotide	median fluorescence [a.u.]
GAGGCCTCGCGCGGTTGGCCTCCTGGCCAACCGCGCGAGGCCTCACACTC	2140
GAGGCCCCACCGCAACAGCCTCCTGGCTGTTGCGGTGGGGCCTCACACTC (5mC at 8)	3050
GAGGCCTGTCGTGGTTGGCCTCCTGGCCAACCACGACAGGCCTCACACTC	2030
GAGGCCCAACCGCACGAGCCTCCTGGCTCGTGCGGTTGGGCCTCACACTC (5mC at 29)	3930
GAGGCCTGTCGGGGTTGGCCTCCTGGCCAACCCCGACAGGCCTCACACTC (5mC at 33)	1880
GAGGCCTGTCGCTGTTGGCCTCCTGGCCAACAGCGACAGGCCTCACACTC	1680
GAGGCCCAACCGCACGAGCCTCCTGGCTCGTGCGGTTGGGCCTCACACTC (5mC at 15 29)	3260
GAGGCCCAACCGCACGAGCCTCCTGGCTCGTGCGGTTGGGCCTCACACTC (5mC at 15)	3270

Series 2 — action: inhibitor; organism: SARS-CoV-2; tested at: 20 µM
Target: Replicase polyprotein 1ab, nsp13 helicase (rep, Severe acute respiratory syndrome coronavirus 2, UniProt P0DTD1)
SMILES	inhibition [%]
CCC[C@H](NC(=O)[C@@H]1[C@H]2CCC[C@H]2CN1C(=O)[C@@H](NC(=O)[C@@H](NC(=O)c1cnccn1)C1CCCCC1)C(C)(C)C)C(=O)C(=O)NC1CC1	99.8
C[C@H](NC(=O)/C(C#N)=C/c1cccc(Br)n1)c1ccccc1	104
Cc1c(Cl)c(C)[n+]([O-])c(Cl)c1-c1noc(-c2cc(O)c(O)c([N+](=O)[O-])c2)n1	94.8
CCN(CC)C(=S)SSC(=S)N(CC)CC	107
COCCCOc1ccnc(C[S+]([O-])c2nc3ccccc3[nH]2)c1C (stereo not drawn)	91.3
COC(=O)C1=C(C)NC(C)=C(C(=O)OC)C1c1ccccc1[N+](=O)[O-]	105
Oc1cc2c(cc1O)[C@@H]1c3ccc(O)c(O)c3OC[C@]1(O)C2	107
Oc1ccc2c(c1)CC[C@H](c1ccccc1)[C@@H]2c1ccc(OCCN2CCCC2)cc1	1.3
CC(=O)C(=Cc1cc(O)c(O)c([N+](=O)[O-])c1)C(C)=O	99.2
COc1cc2c(cc1OC)-c1cc3ccc(OC)c(OC)c3c[n+]1CC2	106
O=C(O[C@@H]1Cc2c(O)cc(O)cc2O[C@@H]1c1cc(O)c(O)c(O)c1)c1cc(O)c(O)c(O)c1	98
CCN1C(=O)CNc2ncc(-c3ccc(-c4nc[nH]n4)nc3C)nc21	93.3
CO[C@H](C(=O)[C@@H](O)[C@@H](C)O)[C@@H]1Cc2cc3cc(O[C@H]4C[C@@H](O[C@H]5C[C@@H](O)[C@H](O)[C@@H](C)O5)[C@H](O)[C@@H](C)O4)c(C)c(O)c3c(O)c2C(=O)[C@H]1O[C@H]1C[C@@H](O[C@H]2C[C@@H](O[C@H]3C[C@](C)(O)[C@H](O)[C@@H](C)O3)[C@@H](O)[C@@H](C)O2)[C@H](O)[C@@H](C)O1	96.5
CC1OC2(CS1)CN1CCC2CC1 (stereo not drawn)	0.2
CN(C)C(=S)SSC(=S)N(C)C	105
O=C(O)C(Cl)Cl	4.48
COc1cc(C(=S)N2CCOCC2)ccc1O	107
O=C(Nc1cccnc1)N1CCC(Cc2cccc(Oc3ccc(C(F)(F)F)cn3)c2)CC1	3.41
CCOC(=O)Nc1ccc(NCc2ccc(F)cc2)nc1N	108
COC(=O)C1=C(C)NC(C)=C(C(=O)OCC(C)C)C1c1ccccc1[N+](=O)[O-] (stereo not drawn)	96.1
Cc1ccc(C(=O)Nc2ccc(S(=O)(=O)O)c3cc(S(=O)(=O)O)cc(S(=O)(=O)O)c23)cc1NC(=O)c1cccc(NC(=O)Nc2cccc(C(=O)Nc3cc(C(=O)Nc4ccc(S(=O)(=O)O)c5cc(S(=O)(=O)O)cc(S(=O)(=O)O)c45)ccc3C)c2)c1	88.4
N=C(N)NN=C1C=CC(=NNC(N)=S)C=C1	97.9
O=c1c(O)c(-c2cc(O)c(O)c(O)c2)oc2cc(O)cc(O)c12	45.5
CC(C)Nc1cccnc1N1CCN(C(=O)c2cc3cc(NS(C)(=O)=O)ccc3[nH]2)CC1	107
CC(C)N(CCC(=O)c1ccc2ccccc2c1)Cc1ccccc1	105

Series 3 — technique: protein-binding microarray; form: double-stranded DNA, one strand shown; matrix: in vitro; tested at: 2200 nM top; notes: 60-bp whole probe; together with: salmon DNA 0.4 mg/ml; reference: random background probes; reading: higher = stronger binding; shared flanks, not repeated: GCCTAGCAC … GTCTTGATTCGCTTGACGCTGCTG
Target: Interferon regulatory factor 7, full length, phosphomimetic (IRF7, Homo sapiens, UniProt Q92985, residues 1-503, S471D/S472D/S475D/S476D/S477D/S483D/S484D/S487D)
Construct (chain): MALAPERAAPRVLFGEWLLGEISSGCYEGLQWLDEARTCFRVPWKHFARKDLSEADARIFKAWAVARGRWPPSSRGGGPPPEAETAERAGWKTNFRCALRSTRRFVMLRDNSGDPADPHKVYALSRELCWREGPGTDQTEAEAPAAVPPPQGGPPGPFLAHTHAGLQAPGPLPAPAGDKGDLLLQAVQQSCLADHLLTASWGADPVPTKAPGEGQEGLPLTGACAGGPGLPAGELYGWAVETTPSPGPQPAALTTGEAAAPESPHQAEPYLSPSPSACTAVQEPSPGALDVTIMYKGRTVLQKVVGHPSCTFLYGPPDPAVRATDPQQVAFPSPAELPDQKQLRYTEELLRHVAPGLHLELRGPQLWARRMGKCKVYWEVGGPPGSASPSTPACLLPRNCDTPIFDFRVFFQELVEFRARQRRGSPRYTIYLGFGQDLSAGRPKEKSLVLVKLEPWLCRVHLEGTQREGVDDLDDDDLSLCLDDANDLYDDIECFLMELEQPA
Oligonucleotide	fitted relative affinity
TTAGAAGTGAGTTTCGATTAGTGCTAG	3.68 z-score
TTAGCTTTCGACACTGGGTTAGTGCTA	2.52 z-score
TAATGCTTCTGTATTCATGAGTGCTAG	0.857 z-score
TCATTTATGTACTCTCTCACTGTGCTA	1.72 z-score
GACGGTTTCCTTTTCCTGATGTGCTAG	5.51 z-score
AGAGAGAGAGAGAGAGAGAGGTGCTAG	-1.19 z-score
TCATGCTTCAGGTTTACCACTGTGCTA	0.913 z-score
GCTATTTTTAGGATGGGCTAGTGCTAG	0.162 z-score

Series 4 — technique: protein binding microarray; form: double-stranded DNA, one strand shown; matrix: in vitro; tested at: not given; reference: not given; reading: higher = stronger binding
Target: Histone acetyltransferase KAT6A, winged helix 2, GST fusion (KAT6A, Homo sapiens, UniProt Q92794, residues 85-181)
Notes: 8-mer, flanks averaged, mean of 2 arrays, mostly near background
Target sequence (chain): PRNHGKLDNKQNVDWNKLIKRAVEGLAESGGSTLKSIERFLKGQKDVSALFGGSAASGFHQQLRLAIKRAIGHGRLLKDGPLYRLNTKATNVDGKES
Oligonucleotide	E-score
AGGGTCCG	-0.0437
GTCGATCA	0.0671
ACACCCAG	-0.132
AGTTCTCG	0.00761
ACGTCTAA	-0.174
ACATGTGC	-0.0973
CACACTTA	-0.056
CAATCGCA	0.132

Series 5 — cell line: HEK-293T; organism: VSV pseudotyped with SARS-CoV-2 spike; tested at: 10 µM; time: 16 h
Structure (SMILES)	pseudovirus infection
OC(Cn1cncn1)(Cn1cncn1)c1ccc(F)cc1F	109%
Clc1ccc(CO/N=C(\Cn2ccnc2)c2ccc(Cl)cc2Cl)c(Cl)c1	75%
CCCCOCCOCCOCc1cc2c(cc1CCC)OCO2	80.3%
CNCCCC12CCC(c3ccccc31)c1ccccc12	30.5%

Further values, each from its own experiment
Compound	target	read-out	action	tested at	notes	measurement	result
CC(C)(C)c1ccc(S(=O)(=O)/C=C/C#N)cc1	Replicase polyprotein 1ab, main protease (rep, Severe acute respiratory syndrome coronavirus 2, UniProt P0DTD1)	enzyme activity	inhibitor	20 µM	hit confirmation	inhibition	98.9%

For quick reference, copied from above (series 2):
SMILES	inhibition [%]
CN(C)C(=S)SSC(=S)N(C)C	105
O=C(O)C(Cl)Cl	4.48
COc1cc(C(=S)N2CCOCC2)ccc1O	107
O=C(Nc1cccnc1)N1CCC(Cc2cccc(Oc3ccc(C(F)(F)F)cn3)c2)CC1	3.41
